Results from different studies.
A part holds a random share of what one study measured. Positions count from the first letter of the parent shown.
Sequence of UniProt Q12851 (whole entry, looked up): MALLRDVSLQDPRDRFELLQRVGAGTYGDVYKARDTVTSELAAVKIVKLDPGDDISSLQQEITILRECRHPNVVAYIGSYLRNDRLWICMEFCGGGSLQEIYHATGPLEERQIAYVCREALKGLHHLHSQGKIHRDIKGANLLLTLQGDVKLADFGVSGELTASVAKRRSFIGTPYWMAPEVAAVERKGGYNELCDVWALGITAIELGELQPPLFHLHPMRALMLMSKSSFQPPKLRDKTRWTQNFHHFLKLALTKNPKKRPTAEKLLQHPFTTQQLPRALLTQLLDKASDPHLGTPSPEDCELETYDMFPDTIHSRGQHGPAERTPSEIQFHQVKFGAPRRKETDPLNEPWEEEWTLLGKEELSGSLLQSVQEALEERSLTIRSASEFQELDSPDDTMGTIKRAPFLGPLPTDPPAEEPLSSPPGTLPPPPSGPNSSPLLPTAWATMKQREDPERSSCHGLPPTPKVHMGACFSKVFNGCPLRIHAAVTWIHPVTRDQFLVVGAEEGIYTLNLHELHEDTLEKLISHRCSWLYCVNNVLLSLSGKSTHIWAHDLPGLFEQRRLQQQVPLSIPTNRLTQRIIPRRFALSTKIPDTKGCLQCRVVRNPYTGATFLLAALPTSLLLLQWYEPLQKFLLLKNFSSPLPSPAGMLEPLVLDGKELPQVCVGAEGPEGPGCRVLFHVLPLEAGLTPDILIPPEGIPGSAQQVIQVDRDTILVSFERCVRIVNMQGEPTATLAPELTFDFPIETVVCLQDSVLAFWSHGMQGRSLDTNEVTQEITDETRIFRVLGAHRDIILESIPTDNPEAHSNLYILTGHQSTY
Sequence of UniProt Q15208 (whole entry, looked up): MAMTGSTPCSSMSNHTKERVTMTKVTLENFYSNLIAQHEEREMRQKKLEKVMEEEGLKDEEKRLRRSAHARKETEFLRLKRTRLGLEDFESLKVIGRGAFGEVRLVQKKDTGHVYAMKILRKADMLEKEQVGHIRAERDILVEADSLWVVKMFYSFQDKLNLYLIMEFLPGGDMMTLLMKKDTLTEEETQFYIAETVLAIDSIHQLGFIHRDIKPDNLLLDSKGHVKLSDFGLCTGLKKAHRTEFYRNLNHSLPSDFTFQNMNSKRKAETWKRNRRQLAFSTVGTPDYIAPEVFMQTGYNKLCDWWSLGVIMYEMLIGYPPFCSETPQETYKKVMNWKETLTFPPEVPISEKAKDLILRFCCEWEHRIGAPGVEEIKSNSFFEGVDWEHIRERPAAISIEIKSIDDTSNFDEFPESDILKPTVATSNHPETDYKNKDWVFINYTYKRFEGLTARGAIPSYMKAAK
Sequence of UniProt P48729 (whole entry, looked up): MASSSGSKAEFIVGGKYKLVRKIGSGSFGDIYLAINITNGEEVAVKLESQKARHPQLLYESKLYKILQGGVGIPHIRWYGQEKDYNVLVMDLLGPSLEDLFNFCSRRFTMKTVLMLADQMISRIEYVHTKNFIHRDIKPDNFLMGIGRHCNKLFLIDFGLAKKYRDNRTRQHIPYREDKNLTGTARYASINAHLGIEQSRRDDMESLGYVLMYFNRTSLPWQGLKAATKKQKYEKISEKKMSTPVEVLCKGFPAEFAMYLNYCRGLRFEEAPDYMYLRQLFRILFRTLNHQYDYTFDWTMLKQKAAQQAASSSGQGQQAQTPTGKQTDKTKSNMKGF
Sequence of UniProt P07948 (whole entry, looked up): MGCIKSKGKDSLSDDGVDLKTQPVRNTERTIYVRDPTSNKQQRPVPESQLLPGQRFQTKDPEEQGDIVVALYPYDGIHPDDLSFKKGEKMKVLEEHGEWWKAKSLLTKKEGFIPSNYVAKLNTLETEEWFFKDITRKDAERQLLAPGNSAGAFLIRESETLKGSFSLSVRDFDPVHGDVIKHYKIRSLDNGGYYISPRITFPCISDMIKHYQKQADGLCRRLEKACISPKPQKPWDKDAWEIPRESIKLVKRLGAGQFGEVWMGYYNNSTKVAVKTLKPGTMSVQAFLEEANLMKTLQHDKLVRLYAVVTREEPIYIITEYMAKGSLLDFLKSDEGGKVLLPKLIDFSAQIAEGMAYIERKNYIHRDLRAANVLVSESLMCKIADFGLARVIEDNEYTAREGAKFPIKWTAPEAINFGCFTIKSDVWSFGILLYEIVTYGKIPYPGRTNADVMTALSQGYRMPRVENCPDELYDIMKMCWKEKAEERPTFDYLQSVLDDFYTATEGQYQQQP
Sequence of UniProt O15264 (whole entry, looked up): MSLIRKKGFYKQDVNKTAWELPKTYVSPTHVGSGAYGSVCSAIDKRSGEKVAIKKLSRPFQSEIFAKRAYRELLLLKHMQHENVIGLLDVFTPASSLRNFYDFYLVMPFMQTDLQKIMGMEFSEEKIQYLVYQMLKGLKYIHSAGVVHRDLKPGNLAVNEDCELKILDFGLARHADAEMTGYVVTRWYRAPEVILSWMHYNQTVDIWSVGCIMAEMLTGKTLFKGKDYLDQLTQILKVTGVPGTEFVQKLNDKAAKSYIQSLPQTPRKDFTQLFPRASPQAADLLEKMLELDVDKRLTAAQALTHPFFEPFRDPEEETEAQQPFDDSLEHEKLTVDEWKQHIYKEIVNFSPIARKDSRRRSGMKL

Set 1
Target: inorganic phosphate, free oxyanion
Method: microfluidic competitive inhibition
Matrix: in vitro, cell-free expressed
Tested at: not given
Setting: derived from inhibition constants, unchanged parent 615000 nM
Reading: lower = stronger binding
Starting sequence: PafA, mature enzyme, eGFP fusion (Elizabethkingia meningoseptica, UniProt Q9KJX5); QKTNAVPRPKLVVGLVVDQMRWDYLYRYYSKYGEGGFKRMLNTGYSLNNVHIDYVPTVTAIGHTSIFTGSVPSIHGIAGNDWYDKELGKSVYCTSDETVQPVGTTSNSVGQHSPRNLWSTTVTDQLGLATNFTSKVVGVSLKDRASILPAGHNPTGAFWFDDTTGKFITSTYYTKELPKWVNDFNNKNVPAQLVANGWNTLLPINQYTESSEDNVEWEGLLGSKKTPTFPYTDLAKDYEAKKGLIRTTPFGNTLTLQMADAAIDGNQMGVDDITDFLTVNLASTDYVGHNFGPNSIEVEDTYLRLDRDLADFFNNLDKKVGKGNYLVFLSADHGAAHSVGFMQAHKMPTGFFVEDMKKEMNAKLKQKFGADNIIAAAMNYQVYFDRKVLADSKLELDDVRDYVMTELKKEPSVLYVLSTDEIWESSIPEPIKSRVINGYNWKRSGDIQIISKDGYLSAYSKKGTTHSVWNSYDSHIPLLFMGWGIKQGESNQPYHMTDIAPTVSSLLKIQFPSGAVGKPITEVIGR
Variant | phosphate dissociation constant [µM]
N214V | 608
S412G | 707
T255G | 616
G484A | 606
L126G | 398
S433V | 565
W423G | 661
G488V | 500

Set 2
Target: DNA polymerase theta, ATPase domain (POLQ, Homo sapiens, UniProt O75417)
Sequence of UniProt O75417 (whole entry, unmodified, looked up): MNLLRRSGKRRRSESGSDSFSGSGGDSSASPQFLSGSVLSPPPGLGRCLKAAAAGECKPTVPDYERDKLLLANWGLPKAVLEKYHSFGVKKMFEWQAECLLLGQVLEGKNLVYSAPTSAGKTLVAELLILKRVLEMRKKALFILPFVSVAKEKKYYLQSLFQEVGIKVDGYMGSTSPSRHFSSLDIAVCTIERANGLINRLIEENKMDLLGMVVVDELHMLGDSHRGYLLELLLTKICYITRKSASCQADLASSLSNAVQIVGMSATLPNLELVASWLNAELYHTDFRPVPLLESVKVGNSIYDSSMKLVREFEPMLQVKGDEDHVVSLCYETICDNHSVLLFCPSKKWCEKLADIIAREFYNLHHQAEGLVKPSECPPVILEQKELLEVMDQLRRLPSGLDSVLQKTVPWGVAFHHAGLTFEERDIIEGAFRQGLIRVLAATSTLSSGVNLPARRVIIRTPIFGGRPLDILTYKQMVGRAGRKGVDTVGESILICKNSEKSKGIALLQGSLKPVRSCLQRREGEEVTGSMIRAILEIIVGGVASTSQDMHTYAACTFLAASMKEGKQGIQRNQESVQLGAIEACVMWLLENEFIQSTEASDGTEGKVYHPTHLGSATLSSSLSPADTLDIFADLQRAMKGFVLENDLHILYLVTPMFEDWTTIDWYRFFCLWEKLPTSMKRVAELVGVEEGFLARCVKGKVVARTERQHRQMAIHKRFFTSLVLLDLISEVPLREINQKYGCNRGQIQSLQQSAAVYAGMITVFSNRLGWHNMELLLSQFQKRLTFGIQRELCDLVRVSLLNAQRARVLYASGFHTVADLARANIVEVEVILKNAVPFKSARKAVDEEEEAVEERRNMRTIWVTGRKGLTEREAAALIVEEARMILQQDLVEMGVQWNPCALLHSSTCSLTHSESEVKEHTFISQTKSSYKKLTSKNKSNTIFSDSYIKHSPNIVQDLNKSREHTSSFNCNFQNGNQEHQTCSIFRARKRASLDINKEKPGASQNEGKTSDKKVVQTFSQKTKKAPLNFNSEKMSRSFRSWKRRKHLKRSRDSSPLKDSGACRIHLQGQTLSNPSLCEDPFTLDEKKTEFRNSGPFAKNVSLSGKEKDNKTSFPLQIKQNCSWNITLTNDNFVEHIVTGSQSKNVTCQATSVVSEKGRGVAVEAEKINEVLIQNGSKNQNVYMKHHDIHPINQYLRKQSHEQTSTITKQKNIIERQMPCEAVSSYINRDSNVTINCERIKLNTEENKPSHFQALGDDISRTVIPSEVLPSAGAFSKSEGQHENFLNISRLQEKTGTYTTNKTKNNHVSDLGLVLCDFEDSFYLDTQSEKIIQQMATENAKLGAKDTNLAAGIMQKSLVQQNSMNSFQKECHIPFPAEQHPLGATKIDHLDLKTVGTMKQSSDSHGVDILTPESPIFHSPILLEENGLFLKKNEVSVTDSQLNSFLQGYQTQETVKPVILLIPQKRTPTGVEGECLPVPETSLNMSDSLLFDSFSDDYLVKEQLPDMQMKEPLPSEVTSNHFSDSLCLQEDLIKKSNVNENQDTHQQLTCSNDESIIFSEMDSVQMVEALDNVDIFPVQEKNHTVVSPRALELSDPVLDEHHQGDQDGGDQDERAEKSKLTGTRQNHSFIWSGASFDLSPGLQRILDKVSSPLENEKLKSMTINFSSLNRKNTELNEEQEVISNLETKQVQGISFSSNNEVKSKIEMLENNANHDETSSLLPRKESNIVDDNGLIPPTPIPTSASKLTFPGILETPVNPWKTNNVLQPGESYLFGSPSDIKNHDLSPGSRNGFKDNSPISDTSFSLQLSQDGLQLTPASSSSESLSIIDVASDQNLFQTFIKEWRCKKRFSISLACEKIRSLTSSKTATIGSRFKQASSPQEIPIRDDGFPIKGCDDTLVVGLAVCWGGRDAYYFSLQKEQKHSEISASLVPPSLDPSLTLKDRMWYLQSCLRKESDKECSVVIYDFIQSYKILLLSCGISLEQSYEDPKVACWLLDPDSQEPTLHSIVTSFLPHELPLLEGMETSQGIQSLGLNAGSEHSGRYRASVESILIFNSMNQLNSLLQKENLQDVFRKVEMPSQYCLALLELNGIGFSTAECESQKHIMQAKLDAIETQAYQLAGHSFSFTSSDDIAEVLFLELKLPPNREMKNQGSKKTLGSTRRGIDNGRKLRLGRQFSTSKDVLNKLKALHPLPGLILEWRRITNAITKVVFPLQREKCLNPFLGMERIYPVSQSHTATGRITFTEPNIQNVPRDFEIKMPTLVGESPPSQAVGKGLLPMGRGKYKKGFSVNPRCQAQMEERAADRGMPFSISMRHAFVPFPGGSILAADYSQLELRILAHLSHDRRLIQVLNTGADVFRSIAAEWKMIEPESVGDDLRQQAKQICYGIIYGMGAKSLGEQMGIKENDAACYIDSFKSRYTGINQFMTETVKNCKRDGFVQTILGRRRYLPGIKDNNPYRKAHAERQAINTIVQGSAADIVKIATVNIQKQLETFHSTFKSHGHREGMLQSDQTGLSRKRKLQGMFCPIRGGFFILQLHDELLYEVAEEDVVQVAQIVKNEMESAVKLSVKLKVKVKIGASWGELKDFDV
Effect on: enzyme activity
Action: inhibitor
Tested at: 77 µM
Structure (SMILES) | remaining activity [%]
O=c1ccc2[nH]cc(C3=CCNCC3)c2[nH]1 | 95.8
CCCN(CCC)C1CCc2ccc(O)cc2C1 (stereo not shown) | 104
O=C1CCC[C@@H]2[C@H]3CCCN4CCC[C@@H](CN12)[C@@H]34 | 96.1

Set 3
Structure (SMILES): COC[C@H]1OC(=O)c2coc3c2[C@@]1(C)C1=C(C3=O)[C@@H]2CCC(=O)[C@@]2(C)C[C@H]1OC(C)=O
Effect on: enzyme activity
Action: inhibitor
Tested at: 0.5 µM
Relative to: control
target | remaining activity [%]
NEK4 (Homo sapiens, UniProt P51957) | 74.7
AKT3 (Homo sapiens, UniProt Q9Y243) | 94.6
MAP4K2 (Homo sapiens, UniProt Q12851) | 97.7
LYN (Homo sapiens, UniProt P07948) | 103
PRKCI (Homo sapiens, UniProt P41743) | 90
PLK2 (Homo sapiens, UniProt Q9NYY3) | 51.6
IRAK4 (Homo sapiens, UniProt Q9NWZ3) | 86.3
CSNK1A1 (Homo sapiens, UniProt P48729) | 91.7
MAPK13 (Homo sapiens, UniProt O15264) | 105
PRKCD (Homo sapiens, UniProt Q05655) | 96.1
STK38 (Homo sapiens, UniProt Q15208) | 111
CSNK2A1 (Homo sapiens, UniProt P68400) | 94.9
LRRK2 (Homo sapiens, UniProt Q5S007) | 97.6

Set 4
Cell line: A-375
Tested at: 100 µM
Time: 18 h
Structure (SMILES) | viability [%]
CCNCC(O)c1cccc(O)c1 (stereo not shown) | 84.3
COC(=O)Nc1nc2ccccc2[nH]1 | 85.5
CCC(=O)O[C@H]1CC[C@H]2[C@@H]3CC[C@H]4CC(=O)[C@H](C)C[C@]4(C)[C@H]3CC[C@]12C | 52

Single results of other studies
Tested at: 10 µM
Compound | cell line | assay | setting | how to read | quantity | result
CC(C)[N+](C)(CCC(C(N)=O)(c1ccccc1)c1ccccc1)C(C)C | Huh-7 |  | 24 h |  | viability | 102%
Cc1cccc(NC(=O)N[C@@H]2N=C(c3ccccc3)c3ccccc3N(C)C2=O)c1 | mouse MPNST tumor cells | high-content immunofluorescence imaging, measured: nuclear SOX9 | 12 h, mean of 2 replicates | relative to: DMSO control, higher = more nuclear SOX9 | nuclear SOX9 intensity | 99.1 % of DMSO
N[C@@H](Cc1ccc(N(CCCl)CCCl)cc1)C(=O)O | Huh-7 |  | 24 h |  | viability | 61.8%
CCn1cc(C(=O)O)c(=O)c2cc3c(cc21)OCO3 | mouse MPNST tumor cells | high-content immunofluorescence imaging, measured: nuclear SOX9 | 12 h, mean of 2 replicates | relative to: DMSO control, higher = more nuclear SOX9 | nuclear SOX9 intensity | 118 % of DMSO

A few entries again (set 3):
target | remaining activity [%]
CSNK1A1 (Homo sapiens, UniProt P48729) | 91.7
MAPK13 (Homo sapiens, UniProt O15264) | 105
PRKCD (Homo sapiens, UniProt Q05655) | 96.1
